Assay results of several laboratories.
Numbered parts are unrelated; each lists some results of a single study.
UniProt Q12851, sequence (whole entry, looked up): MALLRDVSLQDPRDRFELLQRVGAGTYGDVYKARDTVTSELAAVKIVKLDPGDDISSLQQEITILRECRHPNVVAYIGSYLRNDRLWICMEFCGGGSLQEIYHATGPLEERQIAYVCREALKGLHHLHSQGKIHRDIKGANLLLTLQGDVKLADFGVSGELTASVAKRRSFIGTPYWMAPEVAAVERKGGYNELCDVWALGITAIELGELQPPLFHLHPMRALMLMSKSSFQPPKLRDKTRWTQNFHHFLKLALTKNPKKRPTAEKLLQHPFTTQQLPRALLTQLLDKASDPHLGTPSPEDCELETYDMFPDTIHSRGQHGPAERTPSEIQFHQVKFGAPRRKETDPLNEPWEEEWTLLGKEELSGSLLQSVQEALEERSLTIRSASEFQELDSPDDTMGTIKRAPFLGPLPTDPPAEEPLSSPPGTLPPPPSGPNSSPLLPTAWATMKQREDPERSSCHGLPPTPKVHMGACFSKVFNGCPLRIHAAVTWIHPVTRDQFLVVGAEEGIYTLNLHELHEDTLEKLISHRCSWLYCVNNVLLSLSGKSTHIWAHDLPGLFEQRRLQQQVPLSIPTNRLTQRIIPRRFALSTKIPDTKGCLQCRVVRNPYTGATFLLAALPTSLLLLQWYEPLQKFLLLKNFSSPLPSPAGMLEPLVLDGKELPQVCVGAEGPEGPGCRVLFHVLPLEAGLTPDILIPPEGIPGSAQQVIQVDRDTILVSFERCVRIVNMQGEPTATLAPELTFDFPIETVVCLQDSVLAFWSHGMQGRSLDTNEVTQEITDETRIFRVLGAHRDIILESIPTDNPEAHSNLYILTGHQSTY
UniProt Q6ZN16, sequence (whole entry, looked up): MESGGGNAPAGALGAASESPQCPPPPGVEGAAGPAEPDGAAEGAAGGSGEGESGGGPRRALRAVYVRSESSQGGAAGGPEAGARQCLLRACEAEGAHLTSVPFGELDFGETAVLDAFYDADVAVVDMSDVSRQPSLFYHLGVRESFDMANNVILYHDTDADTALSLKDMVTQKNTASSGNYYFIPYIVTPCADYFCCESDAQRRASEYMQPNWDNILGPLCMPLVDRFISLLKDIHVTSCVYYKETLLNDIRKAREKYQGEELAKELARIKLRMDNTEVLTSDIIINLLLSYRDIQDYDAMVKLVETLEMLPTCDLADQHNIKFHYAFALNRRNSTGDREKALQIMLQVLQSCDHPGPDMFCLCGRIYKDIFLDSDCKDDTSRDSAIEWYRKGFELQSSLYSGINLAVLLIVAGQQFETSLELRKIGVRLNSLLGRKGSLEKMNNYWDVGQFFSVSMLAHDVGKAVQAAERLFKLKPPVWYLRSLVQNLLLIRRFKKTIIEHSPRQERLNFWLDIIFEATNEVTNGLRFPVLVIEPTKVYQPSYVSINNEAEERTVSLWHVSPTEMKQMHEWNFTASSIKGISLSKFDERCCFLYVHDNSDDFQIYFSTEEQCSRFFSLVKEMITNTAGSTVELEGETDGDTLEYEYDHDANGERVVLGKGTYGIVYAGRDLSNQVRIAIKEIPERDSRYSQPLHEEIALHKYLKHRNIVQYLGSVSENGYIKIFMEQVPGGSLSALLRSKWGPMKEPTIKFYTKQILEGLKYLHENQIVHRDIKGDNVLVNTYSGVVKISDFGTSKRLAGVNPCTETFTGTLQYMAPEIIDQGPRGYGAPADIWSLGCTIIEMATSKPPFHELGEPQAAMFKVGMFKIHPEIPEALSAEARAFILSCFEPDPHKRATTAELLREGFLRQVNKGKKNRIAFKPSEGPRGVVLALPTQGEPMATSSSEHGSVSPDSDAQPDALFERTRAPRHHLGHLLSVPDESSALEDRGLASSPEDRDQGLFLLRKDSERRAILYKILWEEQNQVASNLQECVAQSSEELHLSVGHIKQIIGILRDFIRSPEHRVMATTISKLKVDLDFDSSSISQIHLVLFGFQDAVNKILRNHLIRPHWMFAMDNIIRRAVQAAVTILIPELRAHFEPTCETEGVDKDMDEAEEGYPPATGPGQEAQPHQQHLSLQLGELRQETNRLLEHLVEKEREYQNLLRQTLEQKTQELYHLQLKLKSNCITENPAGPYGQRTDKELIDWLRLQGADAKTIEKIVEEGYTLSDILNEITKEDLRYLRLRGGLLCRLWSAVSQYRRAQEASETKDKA
UniProt P42681, sequence (whole entry, looked up): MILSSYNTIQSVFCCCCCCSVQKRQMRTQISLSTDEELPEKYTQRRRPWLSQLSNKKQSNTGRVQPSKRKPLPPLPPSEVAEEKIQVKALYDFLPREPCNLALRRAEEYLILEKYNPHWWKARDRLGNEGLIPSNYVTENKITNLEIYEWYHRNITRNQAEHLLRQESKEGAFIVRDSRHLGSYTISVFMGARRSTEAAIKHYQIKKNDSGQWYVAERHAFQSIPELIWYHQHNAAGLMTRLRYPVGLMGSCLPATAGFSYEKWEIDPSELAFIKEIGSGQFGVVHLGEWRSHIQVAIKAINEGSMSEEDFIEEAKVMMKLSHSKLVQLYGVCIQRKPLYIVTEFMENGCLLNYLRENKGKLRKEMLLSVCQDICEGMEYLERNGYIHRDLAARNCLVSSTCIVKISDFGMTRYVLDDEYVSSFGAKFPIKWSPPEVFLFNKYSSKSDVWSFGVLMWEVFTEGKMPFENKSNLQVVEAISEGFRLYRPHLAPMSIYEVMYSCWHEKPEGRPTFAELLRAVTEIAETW
UniProt Q56UN5, sequence (whole entry, looked up): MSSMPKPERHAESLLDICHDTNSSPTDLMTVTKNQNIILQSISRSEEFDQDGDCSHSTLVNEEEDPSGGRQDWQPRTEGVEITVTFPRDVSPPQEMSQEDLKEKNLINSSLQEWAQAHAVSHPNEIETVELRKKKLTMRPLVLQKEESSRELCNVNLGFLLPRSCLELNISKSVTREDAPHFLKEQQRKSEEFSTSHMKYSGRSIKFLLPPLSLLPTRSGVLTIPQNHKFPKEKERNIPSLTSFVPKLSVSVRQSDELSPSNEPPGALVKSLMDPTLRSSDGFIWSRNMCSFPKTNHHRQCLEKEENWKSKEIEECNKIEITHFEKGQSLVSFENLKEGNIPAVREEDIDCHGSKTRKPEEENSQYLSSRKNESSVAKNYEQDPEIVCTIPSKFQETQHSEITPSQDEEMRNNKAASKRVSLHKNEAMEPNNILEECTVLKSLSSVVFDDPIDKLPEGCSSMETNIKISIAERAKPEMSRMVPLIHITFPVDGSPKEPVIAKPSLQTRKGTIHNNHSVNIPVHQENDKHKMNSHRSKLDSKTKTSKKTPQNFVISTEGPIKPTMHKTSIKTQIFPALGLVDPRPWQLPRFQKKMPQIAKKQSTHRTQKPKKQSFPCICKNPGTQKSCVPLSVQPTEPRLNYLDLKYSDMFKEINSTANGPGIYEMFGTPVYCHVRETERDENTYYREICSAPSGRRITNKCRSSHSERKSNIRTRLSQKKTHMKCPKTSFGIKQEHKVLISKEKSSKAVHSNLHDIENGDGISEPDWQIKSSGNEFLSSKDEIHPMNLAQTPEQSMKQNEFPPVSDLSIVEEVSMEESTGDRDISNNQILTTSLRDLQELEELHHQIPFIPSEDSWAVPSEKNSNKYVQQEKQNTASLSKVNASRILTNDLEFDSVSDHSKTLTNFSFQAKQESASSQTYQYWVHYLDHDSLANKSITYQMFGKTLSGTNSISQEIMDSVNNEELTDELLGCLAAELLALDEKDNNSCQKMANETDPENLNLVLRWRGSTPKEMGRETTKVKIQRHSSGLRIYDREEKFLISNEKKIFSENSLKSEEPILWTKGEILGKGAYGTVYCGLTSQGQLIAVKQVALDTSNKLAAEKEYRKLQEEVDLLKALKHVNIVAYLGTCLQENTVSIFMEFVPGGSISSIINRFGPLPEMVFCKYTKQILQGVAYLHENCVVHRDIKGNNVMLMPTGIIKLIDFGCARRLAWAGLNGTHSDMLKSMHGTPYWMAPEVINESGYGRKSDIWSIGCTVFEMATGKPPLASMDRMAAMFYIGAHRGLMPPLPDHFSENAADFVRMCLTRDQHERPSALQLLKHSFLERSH

Block 1
SMILES: CN([C@@H]1CCc2c(CC(=O)O)c3ccccc3n2C1)S(=O)(=O)c1ccc(F)cc1
Technique: competition with immobilised ligand
Concentration: 1 µM
| target | observed | remaining binding [%] |
| --- | --- | --- |
| TXK (Homo sapiens, UniProt P42681) | binding | 93 |
| MAP3K19 (Homo sapiens, UniProt Q56UN5) | cell-free assay | 100 |
| MAP4K2 (Homo sapiens, UniProt Q12851) | cell-free assay | 87 |
| MAP3K15 (Homo sapiens, UniProt Q6ZN16) | cell-free assay | 100 |

Block 2
Target: Serine/threonine-protein kinase pim-1 (PIM1, Homo sapiens, UniProt P11309)
UniProt P11309, sequence (whole entry, looked up): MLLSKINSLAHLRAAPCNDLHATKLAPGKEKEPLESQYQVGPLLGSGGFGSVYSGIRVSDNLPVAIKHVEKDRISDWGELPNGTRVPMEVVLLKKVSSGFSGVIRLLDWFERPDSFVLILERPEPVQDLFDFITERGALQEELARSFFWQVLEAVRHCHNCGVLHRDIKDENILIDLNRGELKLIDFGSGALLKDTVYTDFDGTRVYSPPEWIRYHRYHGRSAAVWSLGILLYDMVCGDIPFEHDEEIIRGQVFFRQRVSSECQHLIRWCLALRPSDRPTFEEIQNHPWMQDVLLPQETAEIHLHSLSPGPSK
Observed: enzyme activity
Action: inhibitor
Concentration: 0.5 µM
Reference: control
| Compound | remaining activity [%] |
| --- | --- |
| Nc1ncnc2n[nH]c(Nc3ccc(F)cc3)c12 | 95.5 |
| OCC(O)CCON=C1C(c2c(O)[nH]c3ccccc23)=Nc2ccccc21 (stereo not shown) | 59.7 |
| O=C1NC(=O)C(c2cn(CCCO)c3ncccc23)=C1c1cnccn1 | 43.9 |
| CNC(=O)c1cc(Oc2ccc(NC(=O)Nc3ccc(Cl)c(C(F)(F)F)c3)cc2)ccn1 | 97 |
| Oc1ccc(-c2nc(-c3ccncc3)c(-c3ccc(F)cc3)[nH]2)cc1 | 106 |
| O=S(=O)(c1cccc2cnccc12)N1CCCNCC1 | 77 |
| O=C1NC(=O)C(c2cn(CCCn3ccnc3)c3ccccc23)=C1Nc1ccccc1 | 79.1 |
| NCCNc1ncc(C(N)=O)c(Nc2cccc(C(F)(F)F)c2)n1 | 76.1 |
| CN(C)c1ccc(C=C2C(=O)Nc3ccccc32)cc1 | 101 |
| COc1cc2nccc(Oc3ccc(NC(=S)NC(=O)c4ccccc4C)cc3)c2cc1OC | 97.6 |
| Cc1cccc(-c2[nH]c(C(C)(C)C)nc2-c2ccc3c(c2)OCO3)n1 | 100 |
| O=C(Nc1cccc(Nc2cc(Nc3cccc(C(F)(F)F)c3)ncn2)c1)C1CC1 | 104 |
| COc1ccc(CNC(=O)Nc2ncc([N+](=O)[O-])s2)cc1 | 104 |
| COc1cc2ncnc(Nc3ccc(Oc4ccccc4)cc3)c2cc1OC | 102 |

Block 3
Cell line: mouse MPNST tumor cells
Technique: high-content immunofluorescence imaging
Refers to: nuclear SOX9
Concentration: 10 µM
Time: 12 h
Setting: mean of 2 replicates
Reference: DMSO control
Direction: higher = more nuclear SOX9
| Structure (SMILES) | nuclear SOX9 intensity |
| --- | --- |
| CC(CCc1ccccc1)NCC(O)c1ccc(O)c(C(N)=O)c1 (stereo not shown) | 113 % of DMSO |
| O=C(Nc1ccc(N2CCC(C(=O)N3CCOCC3)CC2)cc1)c1cnc(Oc2ccccc2)nc1 | 98.9 % of DMSO |
| CCS(=O)(=O)N(Cc1cccnc1)c1cccc(-c2ccc(C#N)cc2)c1 | 113 % of DMSO |
| CNc1cc2[nH]c(=O)n(-c3ccc(NC(=O)NS(=O)(=O)c4ccc(Cl)s4)cc3)c(=O)c2cc1F | 97.4 % of DMSO |
| CN1CCN(CC/C=C2/c3ccccc3Sc3ccc(S(=O)(=O)N(C)C)cc32)CC1 | 216 % of DMSO |

Block 4
Cell line: A-375
Concentration: 100 µM
Time: 36 h
| Structure (SMILES) | viability [%] |
| --- | --- |
| O=[N+]([O-])c1ccc(O)c2ncccc12 | 18.3 |
| CNC1(C)C2CCC(C2)C1(C)C (stereo not shown) | 93.3 |
| c1ccc(CN(CC2=NCCN2)c2ccccc2)cc1 | 80.7 |
| O=C(O)CCNC(=O)c1ccccc1 | 102 |
| CSCC1CN(/N=C/c2ccc([N+](=O)[O-])o2)C(=O)O1 (stereo not shown) | 32.9 |

A few entries again (block 4):
| Structure (SMILES) | viability [%] |
| --- | --- |
| c1ccc(CN(CC2=NCCN2)c2ccccc2)cc1 | 80.7 |
| O=C(O)CCNC(=O)c1ccccc1 | 102 |
| CSCC1CN(/N=C/c2ccc([N+](=O)[O-])o2)C(=O)O1 (stereo not shown) | 32.9 |
